# Published values of several laboratories.
# Lines come from different studies, so protocols differ.
# Organism: Klebsiella pneumoniae
Compound,test,test system,setting,MIC
CN[C@H](CC(C)C)C(=O)N[C@H]1C(=O)N[C@@H](CC(N)=O)C(=O)N[C@H]2C(=O)N[C@H]3C(=O)N[C@H](C(=O)N[C@H](C(=O)NCc4cn(CC(=O)N[C@H](C(=O)N[C@@H](CCN)C(=O)N[C@H]5CCNC(=O)[C@H]([C@@H](C)O)NC(=O)[C@H](CCN)NC(=O)[C@H](CCN)NC(=O)[C@H](CC(C)C)NC(=O)[C@@H](CC(C)C)NC(=O)[C@H](CCN)NC5=O)[C@@H](C)O)nn4)c4cc(O)cc(O)c4-c4cc3ccc4O)[C@H](O)c3ccc(c(Cl)c3)Oc3cc2cc(c3O[C@@H]2O[C@H](CO)[C@@H](O)[C@H](O)[C@H]2O[C@H]2C[C@](C)(N)[C@H](O)[C@H](C)O2)Oc2ccc(cc2Cl)[C@H]1O,broth microdilution,"ATCC 27736, cation-adjusted Mueller-Hinton broth","18 to 20 h, 37 °C, 0.002% polysorbate 80",32 µg/mL
CCCCCCC#Cc1cncc(-c2nnc(SCc3cc([N+](=O)[O-])cc([N+](=O)[O-])c3)n2C)c1,"microbial growth, broth dilution",DSM30104,,> 64 µg/mL
C=CCO/N=C(\C(=O)N[C@@H]1C(=O)N(OS(=O)(=O)O)C1(C)C)c1nsc(N)n1,agar dilution,"16-14, ESBL-producing",,2 µg/mL
CC[C@H](C)[C@H](NC(=O)[C@@H](CCCNC(=N)N)NC(=O)[C@H](CCCNC(=N)N)NC(=O)[C@@H]1CCCN1C(=O)[C@@H]1CCCN1C(=O)[C@H](CCCNC(=N)N)NC(=O)[C@@H]1CCCN1C(=O)[C@H](CCCNC(=N)N)NC(=O)[C@@H]1CCCN1C(=O)[C@H](CC(C)C)NC(=O)[C@H](Cc1ccc(O)cc1)NC(=O)[C@@H]1CCCN1C(=O)[C@@H]1CCCN1C(=O)[C@H](CCCNC(=N)N)NC(=O)[C@H](CC(=O)O)NC(=O)[C@@H](N)C(C)C)C(=O)N[C@@H](Cc1ccc(O)cc1)C(=O)N[C@@H](CC(N)=O)C(=O)N[C@H](CCCNC(=N)N)C(N)=O,broth microdilution,DSM 681,"18 h, 37 °C, 25% MHB2",8 µg/mL
COc1cc(C(=O)Nc2ccc(C(=O)O)c(O)c2)ccc1NC(=O)c1ccc(NC(=O)[C@H](Cc2c[nH]nn2)NC(=O)c2ccc(NC(=O)/C(C)=C/c3ccc(O)cc3)cc2)cc1,broth microdilution,ciprofloxacin-sensitive,,32 µg/mL
CC1(C)[C@H](NC(=O)/C(=N\OC2(C(=O)O)CCCCC2)c2csc(N)n2)C(=O)N1OS(=O)(=O)O,agar dilution,"ATCC 700603, ESBL-producing",,8 µg/mL
CC[C@H]1OC(=O)[C@H](C)[C@@H](OC(=O)c2ccc(N)cc2)[C@H](C)[C@@H](O[C@@H]2O[C@H](C)C[C@H](N(C)C)[C@H]2O)[C@](C)(OC)C[C@@H](C)C(=O)[C@H](C)[C@@H](O)[C@]1(C)O,microbial growth,ATCC700603,,> 32 µg/mL
CCCCCCCC(=O)N[C@@H](CCN)C(=O)N[C@H](C(=O)N[C@@H](CCN)C(=O)N[C@H]1CCNC(=O)[C@H]([C@@H](C)O)NC(=O)[C@H](CCN)NC(=O)[C@H](CCN)NC(=O)[C@H](CC(C)C)NC(=O)[C@@H](Cc2ccccc2)NC(=O)[C@H](CCN)NC1=O)[C@@H](C)O,broth microdilution,ATCC 19606,,0.125 to 0.25 µg/mL
CC(C)(O/N=C(\C(=O)N[C@@H]1C(=O)N(OS(=O)(=O)O)C1(C)C)c1nsc(N)n1)C(=O)O,agar dilution,"ATCC 700603, ESBL-producing",,> 64 µg/mL
C#CCOc1ccc(CN[C@@]2(C)C[C@H](O[C@H]3[C@H](Oc4c5cc6cc4Oc4ccc(cc4Cl)[C@@H](O)[C@@H](NC(=O)[C@@H](CC(C)C)NC)C(=O)N[C@@H](CC(N)=O)C(=O)N[C@H]6C(=O)N[C@H]4C(=O)N[C@H](C(=O)N[C@H](C(=O)N[C@@H](CCCNC(=N)N)C(N)=O)c6cc(O)cc(O)c6-c6cc4ccc6O)[C@H](O)c4ccc(c(Cl)c4)O5)O[C@H](CO)[C@@H](O)[C@@H]3O)O[C@@H](C)[C@H]2O)cc1OC,broth microdilution,"ATCC 27736, cation-adjusted Mueller-Hinton broth","18 to 20 h, 37 °C, 0.002% polysorbate 80",128 µg/mL
CCCCCCn1cc[n+](CCCCOc2cc(OCCCC[n+]3ccn(CCCCCC)c3)cc(OCCCC[n+]3ccn(CCCCCC)c3)c2)c1.[Br-].[Br-].[Br-],,ATCC 4352,,63 µM
CC1(C)C(NC(=O)C(=NOC2(C(=O)O)CCC2)c2csc(N)n2)C(=O)N1OS(=O)(=O)O (stereo not drawn),agar dilution,"ATCC 700603, ESBL-producing",,1 µg/mL
CN[C@H](CC(C)C)C(=O)N[C@H]1C(=O)N[C@@H](CC(N)=O)C(=O)N[C@H]2C(=O)N[C@H]3C(=O)N[C@H](C(=O)N[C@H](C(=O)O)c4cc(O)cc(O)c4-c4cc3ccc4O)[C@H](O)c3ccc(c(Cl)c3)Oc3cc2cc(c3O[C@@H]2O[C@H](CO)[C@@H](O)[C@H](O)[C@H]2O[C@H]2C[C@](C)(NCc3ccc(OCc4cn(CCCCC(=O)N[C@H](C(=O)N[C@@H](CCN)C(=O)N[C@H]5CCNC(=O)[C@H]([C@@H](C)O)NC(=O)[C@H](CCN)NC(=O)[C@H](CCN)NC(=O)[C@H](CC(C)C)NC(=O)[C@@H](CC(C)C)NC(=O)[C@H](CCN)NC5=O)[C@@H](C)O)nn4)c(OC)c3)[C@H](O)[C@H](C)O2)Oc2ccc(cc2Cl)[C@H]1O,broth microdilution,"ATCC 27736, cation-adjusted Mueller-Hinton broth","18 to 20 h, 37 °C, 0.002% polysorbate 80",16 µg/mL
CC1(C)[C@H](NC(=O)/C(=N\OCc2c(Cl)cccc2Cl)c2nsc(N)n2)C(=O)N1OS(=O)(=O)O,agar dilution,"ATCC 700603, ESBL-producing",,32 µg/mL
CN[C@H](CC(C)C)C(=O)N[C@H]1C(=O)N[C@@H](CC(N)=O)C(=O)N[C@H]2C(=O)N[C@H]3C(=O)N[C@H](C(=O)N[C@H](C(=O)NCc4cn(CCCCC(=O)N[C@H](C(=O)N[C@@H](CCN)C(=O)N[C@H]5CCNC(=O)[C@H]([C@@H](C)O)NC(=O)[C@H](CCN)NC(=O)[C@H](CCN)NC(=O)[C@H](CC(C)C)NC(=O)[C@@H](CC(C)C)NC(=O)[C@H](CCN)NC5=O)[C@@H](C)O)nn4)c4cc(O)cc(O)c4-c4cc3ccc4O)[C@H](O)c3ccc(c(Cl)c3)Oc3cc2cc(c3O[C@@H]2O[C@H](CO)[C@@H](O)[C@H](O)[C@H]2O[C@H]2C[C@](C)(N)[C@H](O)[C@H](C)O2)Oc2ccc(cc2Cl)[C@H]1O,broth microdilution,"ATCC 13883, cation-adjusted Mueller-Hinton broth","18 to 20 h, 37 °C, 0.002% polysorbate 80",32 µg/mL
CC1(C)[C@H](NC(=O)/C(=N\OCCN)c2nsc(N)n2)C(=O)N1OS(=O)(=O)O,agar dilution,"16-14, ESBL-producing",,64 µg/mL
CC[C@H]1OC(=O)[C@H](C)[C@@H](OC(=O)Cc2ccc([N+](=O)[O-])cc2)[C@H](C)[C@@H](O[C@@H]2O[C@H](C)C[C@H](N(C)C)[C@H]2O)[C@](C)(OC)C[C@@H](C)C(=O)[C@H](C)[C@@H](O)[C@]1(C)O,microbial growth,ATCC700603,,> 32 µg/mL
CCCCCCCCCCCC[N+](C)(C)CCCCCCCCCCOc1cc(OCCCCCCCCCC[N+](C)(C)CCCCCCCCCCCC)cc(OCCCCCCCCCC[N+](C)(C)CCCCCCCCCCCC)c1.[Br-].[Br-].[Br-],,ATCC 4352,,250 µM
CC1(C)[C@H](NC(=O)/C(=N\OCCN)c2csc(N)n2)C(=O)N1OS(=O)(=O)O,agar dilution,"16-14, ESBL-producing",,16 µg/mL
CCCCCCCCCCn1cc[n+](CCCCCCCCOc2cc(OCCCCCCCC[n+]3ccn(CCCCCCCCCC)c3)cc(OCCCCCCCC[n+]3ccn(CCCCCCCCCC)c3)c2)c1.[Br-].[Br-].[Br-],,ATCC 4352,,125 µM
CC[C@H]1OC(=O)[C@H](C)[C@@H](OC(=O)Cc2cccc3ccccc23)[C@H](C)[C@@H](O[C@@H]2O[C@H](C)C[C@H](N(C)C)[C@H]2O)[C@](C)(OC)C[C@@H](C)C(=O)[C@H](C)[C@@H](O)[C@]1(C)O,microbial growth,ATCC700603,,> 32 µg/mL
CCCCCCCC[N+](C)(C)CCCCCCCCOc1cc(OCCCCCCCC[N+](C)(C)CCCCCCCC)cc(OCCCCCCCC[N+](C)(C)CCCCCCCC)c1.[Br-].[Br-].[Br-],,ATCC 4352,,2 µM
CN[C@H](CC(C)C)C(=O)N[C@H]1C(=O)N[C@@H](CC(N)=O)C(=O)N[C@H]2C(=O)N[C@H]3C(=O)N[C@H](C(=O)N[C@H](C(=O)NCC(N)=O)c4cc(O)cc(O)c4-c4cc3ccc4O)[C@H](O)c3ccc(c(Cl)c3)Oc3cc2cc(c3O[C@@H]2O[C@H](CO)[C@@H](O)[C@H](O)[C@H]2O[C@H]2C[C@](C)(NCc3ccc(OCc4cn(CC(=O)N[C@H](C(=O)N[C@@H](CCN)C(=O)N[C@H]5CCNC(=O)[C@H]([C@@H](C)O)NC(=O)[C@H](CCN)NC(=O)[C@H](CCN)NC(=O)[C@H](CC(C)C)NC(=O)[C@@H](CC(C)C)NC(=O)[C@H](CCN)NC5=O)[C@@H](C)O)nn4)c(OC)c3)[C@H](O)[C@H](C)O2)Oc2ccc(cc2Cl)[C@H]1O,broth microdilution,"ATCC 27736, cation-adjusted Mueller-Hinton broth","18 to 20 h, 37 °C, 0.002% polysorbate 80",16 µg/mL
CCCCCCn1cc[n+](CCCCCCCCCCOc2cc(OCCCCCCCCCC[n+]3ccn(CCCCCC)c3)cc(OCCCCCCCCCC[n+]3ccn(CCCCCC)c3)c2)c1.[Br-].[Br-].[Br-],,ATCC 4352,,16 µM
c1ccc(CN2CCOCCOCCN(CCCCCCCCN3CCOCCOCCN(CCCCCCCCN4CCOCCOCCN(Cc5ccccc5)CCOCCOCC4)CCOCCOCC3)CCOCCOCC2)cc1,,ATCC BAA-2146,,200 µM
CCCCCC[N+](C)(C)CCCCCCCCOc1cc(OCCCCCCCC[N+](C)(C)CCCCCC)cc(OCCCCCCCC[N+](C)(C)CCCCCC)c1.[Br-].[Br-].[Br-],,ATCC 4352,,2 µM
CC1(C)[C@H](NC(=O)/C(=N\OCC(=O)N2CCC(C(=O)O)C2)c2nsc(N)n2)C(=O)N1OS(=O)(=O)O (stereo partly drawn),agar dilution,"ATCC 700603, ESBL-producing",,> 64 µg/mL
